Results gathered from unrelated publications.
Lines come from different studies, so protocols differ. “And” joins repeats or separate records; there may be more than shown. ± marks the error that the study gave.

| SMILES | cell line | test | setting | how to read | quantity | result |
| --- | --- | --- | --- | --- | --- | --- |
| CN1CCCNC(=O)c2cccc(c2)C(=O)NCCCN(C)CCCNc2cccc3c2C(=O)c2cccc(c2C3=O)NCCC1 | SAS | RNA-Seq, measured: ZNF207 mRNA | 1 µM, 6 h | relative to: untreated cells | log2 fold change | -0.806 |
| CC(=O)N(C)Cc1cccc(-c2cc3c(c(C(F)(F)F)c2)CCCC3N(C)C(=O)CCOCCOCCC(=O)N(C)C2CCCc3c2cc(-c2cccc(CN(C)C(C)=O)c2)cc3C(F)(F)F)c1 (stereo not drawn) | CHO wild type | CHOP::GFP reporter, activator, flow cytometry | – | – | EC50 | 15 µM |
| O=C(C[Se]C(=O)c1ccc2ccccc2c1)Nc1cccc(C(F)(F)F)c1 | NCI60 ovarian subpanel | total growth inhibition, inhibitor | five-dose | – | mean TGI | 3.63 µM |
| Cc1ccc([N+](=O)[O-])cc1S(=O)(=O)N(C)/N=C/c1cnc2ccc(Br)cn12 | HuT78 | Th2 pathway, NanoString IPA | 50 nM, 10 h | direction not given | activation z-score | -2.24 |
| CCNc1cc2c(cc1C)C1(c3cc(C)c(NCC)cc3O2)c2ccccc2C(=O)N1N=Cc1c[c-]c(-c2ccccn2)cc1.Cc1c(C)c(-c2ccc(-c3ccccc3)cc2)[c-](C)c1C.[Cl-].[Ir+3] | A549 | annexin V/PI flow cytometry | 2.0×IC50, 24 h | – | early apoptotic cells | 5.48 ± 0.62% |
| CCN(C(=O)c1cc(F)ccc1Oc1nncnc1N1CCC2(C1)CN([C@H](CCCN(C)CCOC)C(C)C)C2)C(C)C | RD-ES | cell growth or viability | 72 h | – | GI50 | > 10 µM |
| O=C(C[Se]C(=O)C12CC3CC(CC(C3)C1)C2)Nc1cccc(C(F)(F)F)c1 | NCI60 ovarian subpanel | total growth inhibition, inhibitor | five-dose | – | mean TGI | 12.7 µM |
| CC[C@H](CO)Nc1nc(NCc2ccc(-c3ccccn3)cc2)c2ncn(C(C)C)c2n1 | MOLT-4 | tandem mass tag proteomics, measured: UIF | 1 µM, 5 h | relative to: DMSO | log2 fold change | -1.9 |
| Nc1ncn([C@@H]2O[C@H](CO)[C@@H](O)[C@H]2O)c(=O)n1 | AML blasts, primary, RUNX1-mutated | CD34+ blast expansion | 30 nM, HUVEC co-culture | – | inhibition | 0% |
| N#Cc1cccc(/C=C/C(=O)c2ccc(O)cc2)c1 | U-87 MG | measured: KY | concentration not given | relative to: untreated | mRNA level | 0.033 fold |
| O=C(C[Se]C(=O)c1ccccc1Nc1cccc(C(F)(F)F)c1)Nc1cccc(C(F)(F)F)c1 | NCI60 ovarian subpanel | cell growth | 10 µM, 48 h, one-dose | – | mean growth percent | -90.2% |
| COc1ccccc1-c1ccncc1C(=O)Nc1nnc(OCc2ccc(Cl)cc2)s1 | DLD-1 BRCA2-/- | – | 2 µM | – | colony count | 17 and 14 and 22 and 28 and 16 |
| Cn1ncc2cc(-c3cncc(Cl)c3N3CCC4(CCNC4=O)CC3)ccc21 | LS174T | gene expression, microarray, measured: RAG1 mRNA | concentration not given, 4 h | relative to: untreated cells | log2 fold change | -2.21 |
| CC(C)Cc1ccc(C(C)C(=O)[Se]CC(=O)Nc2cccc(C(F)(F)F)c2)cc1 (stereo not drawn) | NCI60 ovarian subpanel | total growth inhibition, inhibitor | five-dose | – | mean TGI | 4.01 µM |
| CCCCCCc1cccc(C(O)CC(CO)NC(=O)CCCCCCCCCCNC(C)=O)c1 (stereo not drawn) | HeLa | CERT activity, HPLC-MS/MS lipidomics, measured: ceramide 16 | 1 µM, 24 h, not cell-number normalised | – | ceramide level | 22400 pmol/sample and 16100 pmol/sample and 21500 pmol/sample |
| O=C(C[Se]C(=O)c1cc2ccccc2o1)Nc1cccc(C(F)(F)F)c1 | NCI60 ovarian subpanel | cell growth, inhibitor | five-dose | – | GI50 | 1.75 µM |
| CCCC(CCC)C(=O)OCc1cn(-c2cc3ccccc3oc2=O)nn1 | SR | NCI60 single-dose screen | 10 µM | – | growth percentage | 101% |

| SMILES | cell line | test | setting | how to read | quantity | result |
| --- | --- | --- | --- | --- | --- | --- |
| COc1ccc(NC(=O)c2ccc3[nH]c(-c4ccc(N(C)C)cc4)nc3c2)cn1 | HCEC-hTERT | IncuCyte | concentration not given, 10 h | – | dead cell to confluence ratio | 5.41 and 3.74 and 66.1 |
| CO[C@@H]1[C@@H](OC(N)=O)[C@@H](O)[C@H](Oc2ccc3c(O)c(NC(=O)c4ccc(O)c(CC=C(C)C)c4)c(=O)oc3c2C)OC1(C)C | DLD-1 BRCA2-/- | – | 75 µM, replicate 2 | – | colony count | 12.5 |
| O=C1C(Br)=C(Br)C(=O)c2ccccc21 | MOLT-3 | XTT | – | relative to: IC50 MRC-5 over IC50 MOLT-3 | selectivity index | 28.7 |
| Cc1ncsc1-c1ccc(C(C)NC(=O)C2CC(O)CN2C(=O)C(NC(=O)CCCCCCCCCCN2CCCC(Nc3ncc(Cl)c(Nc4ccccc4S(=O)(=O)C(C)C)n3)C2)C(C)(C)C)cc1 (stereo not drawn) | 22Rv1 | RNA-seq, measured: TMEM100 mRNA | concentration not given | relative to: DMSO | log2 fold change | -2.7 |
| O=C(Nc1nnc2c1c(-c1ccc(Cl)cc1)nc1sc(=Cc3ccco3)c(=O)n12)c1ccccc1 (mixture of isomers) | UACC-62 | SRB | 10 µM, NCI60 single-dose screen | relative to: untreated | cell growth | 34% |
| C1=[N+]2CCCC[N+]3=Cc4ccc5[n]4[Au-]23[n]2c1ccc2-c1nc2ccccc2nc1-5.F[P-](F)(F)(F)(F)F | IGROV-1 | NCI60 five-dose screen | – | – | TGI | 4 -log M |
| CC(C)c1ccc(N(C)c2ccc3c(c2)OCC[C@H]3CNc2cnccc2C(=O)O)cc1 | MKN-45 | cell viability, CellTiter-Glo | 7 days | – | IC50 | 0.0135 µM |
| COC(=O)c1cc(NC2=NC(=O)C(=Cc3ccc(N(C)C)cc3)S2)ccc1OC(C)=O | MCF7 | GC-MS, measured: Pyroglutamic acid | 1 µM | relative to: DMSO | metabolite level | 0.07 fold change |
| CN(C)c1ccc(-n2cc(COC(=O)[C@]3(C)C=C(C(=O)OC(C)(C)C)C(=O)CC3)nn2)cc1 | HeLa | quantitative western blot | concentration not given, 0 (unit not given), with: EGF | – | pRSK/tubulin ratio | 0.161 |
| Cc1nc(=S)[nH]c(C)c1/N=N/c1nnc(S)s1 | Vero | cell viability, MTT | 5.0 µg/mL | – | inhibition | 15.8 ± 0.863% |
| CC(=O)OC[C@H]1O[C@@H](n2cc(CSc3nc4ccccc4n3Cc3cn([C@@H]4O[C@H](COC(C)=O)[C@@H](OC(C)=O)C(OC(C)=O)[C@H]4OC(C)=O)nn3)nn2)[C@H](OC(C)=O)C(OC(C)=O)[C@@H]1OC(C)=O (stereo in doubt) | HEK293 | MTT | 7.81 ppm | – | cytotoxicity | -0.0465% |
| COC1=C2CC(C)CC(OC)C(O)C(C)C=C(C)C(OC(N)=O)C(OC)C=CC=C(C)C(=O)NC(=CC1=O)C2=O (stereo not drawn) | Rh30 | ChIP-seq, measured: H3K36me3 peak | concentration not given, CBX2 TTS chr17:77751200-77761399 | relative to: untreated control | log fold change | -0.544 |
| COc1ccccc1[C@H](Cn1c(=O)n(C(C)(C)C(N)=O)c(=O)c2c(C)c(-c3ncco3)sc21)OC1CCOCC1 | NCI-H157 | cell proliferation, inhibitor | 168 h | – | EC50 | 0.053 µM |
| CNS(=O)(=O)Nc1nccc(Cc2c(C)c3ccc(Oc4ncccc4F)cc3oc2=O)c1F | NMC-G1 | cell viability, CellTiter-Glo | 7 days | – | IC50 | > 1 µM |
| COc1ccc2c(c1)c(CC(=O)[Se]CC(=O)Nc1cccc(C(F)(F)F)c1)c(C)n2C(=O)c1ccc(Cl)cc1 | NCI60 ovarian subpanel | cell growth, inhibitor | five-dose | – | GI50 | 2.06 µM |
| CCN(CC)CC(=O)Nc1cccc(-n2cc(-c3ccc4ccc(-c5cn(-c6cccc(NC(=O)CN(CC)CC)c6)nn5)cc4c3)nn2)c1 | RCC4 | PCR array, measured: TGFA | 5 x IC50, 6 h, normoxia | relative to: untreated | fold regulation | -1.29 fold |

Repeated from above:
| SMILES | cell line | test | setting | how to read | quantity | result |
| --- | --- | --- | --- | --- | --- | --- |
| CO[C@@H]1[C@@H](OC(N)=O)[C@@H](O)[C@H](Oc2ccc3c(O)c(NC(=O)c4ccc(O)c(CC=C(C)C)c4)c(=O)oc3c2C)OC1(C)C | DLD-1 BRCA2-/- | – | 75 µM, replicate 2 | – | colony count | 12.5 |
| O=C1C(Br)=C(Br)C(=O)c2ccccc21 | MOLT-3 | XTT | – | relative to: IC50 MRC-5 over IC50 MOLT-3 | selectivity index | 28.7 |
| Cc1ncsc1-c1ccc(C(C)NC(=O)C2CC(O)CN2C(=O)C(NC(=O)CCCCCCCCCCN2CCCC(Nc3ncc(Cl)c(Nc4ccccc4S(=O)(=O)C(C)C)n3)C2)C(C)(C)C)cc1 (stereo not drawn) | 22Rv1 | RNA-seq, measured: TMEM100 mRNA | concentration not given | relative to: DMSO | log2 fold change | -2.7 |
| O=C(Nc1nnc2c1c(-c1ccc(Cl)cc1)nc1sc(=Cc3ccco3)c(=O)n12)c1ccccc1 (mixture of isomers) | UACC-62 | SRB | 10 µM, NCI60 single-dose screen | relative to: untreated | cell growth | 34% |
| C1=[N+]2CCCC[N+]3=Cc4ccc5[n]4[Au-]23[n]2c1ccc2-c1nc2ccccc2nc1-5.F[P-](F)(F)(F)(F)F | IGROV-1 | NCI60 five-dose screen | – | – | TGI | 4 -log M |
